Results collected from several papers.
Values joined by “and” are separate records of one study, mostly repeats; a detail may differ. ± marks the error that the study gave.

Under “log2 fold change”, `Cc1ncsc1-c1ccc(C(C)NC(=O)C2CC(O)CN2C(=O)C(NC(=O)CCCCCCCCCCN2CCCC(Nc3ncc(Cl)c(Nc4ccccc4S(=O)(=O)C(C)C)n3)C2)C(C)(C)C)cc1` (stereo not drawn) is recorded as -2.41 (22Rv1; RNA-seq, item: WDR88 mRNA; concentration not given; baseline: DMSO).
For `CC(C)C[C@H](NC(=O)[C@@H](CCCCNC(=O)[C@@H](Cc1ccccc1)NC(=O)CCCCCCCNC(=O)CN1CCN(CC(=O)O)CCN(CC(=O)O)CCN(CC(=O)O)CC1)NC(=O)[C@H](Cc1ccc(O)cc1)NC(=O)[C@H](CO)NC(=O)[C@H](Cc1c[nH]c2ccccc12)NC(=O)[C@H](Cc1c[nH]cn1)NC(=O)[C@@H]1CCC(=O)N1)C(=O)N[C@@H](CCCNC(=N)N)C(=O)N1CCC[C@H]1C(=O)NCC(N)=O` [indium-111 labelled], the tissue uptake was 0.09 ± 0.03 %ID/g (biodistribution; male athymic nude mice, DU-145 prostate cancer xenograft, bone; intravenous, 0.037 MBq, 4 h post-injection).
For `O=C(NCC1OC2CCC=CCCC2O1)c1ccc([18F])nc1` (stereo not drawn), the tissue uptake was 2.1 ± 2.1 %ID/g (healthy female BALB/c nude mice, bladder; intravenous, 7.4 MBq per mouse, 120 min).
`[11CH3]N1CCC(NC(=O)c2cc(-c3c(O)cc(O)cc3Oc3ccc([N+](=O)[O-])cc3)on2)CC1` gave a tissue uptake of 1 ± 0.3 %ID (Wistar rat, female, healthy, lungs; intravenous, 10 min).
`[123I]c1ccc2nc(-c3ccc(-n4ccnn4)nc3)cn2c1` — result for tissue uptake: “not detected” (Wistar rat, heart; intravenous, 24 h).
For `COc1ccc2c(c1)C(C)(C)C(/C=C/C1=C(Oc3ccc(C(=O)NCCCCOc4cc(CN(Cc5ccccn5)Cc5ccccn5)cc(CN(Cc5ccccn5)Cc5ccccn5)c4)cc3)C(=C/C=C3/N(CCCCS(=O)(=O)[O-])c4ccc(OC)cc4C3(C)C)CCC1)=[N+]2CCCCS(=O)(=O)[O-].O=[N+]([O-])[O-].O=[N+]([O-])[O-].[99Tc+].[C-]#[O+].[C-]#[O+].[C-]#[O+].[Zn+2]`, the tissue uptake was 1.35 %ID/g and 1.51 %ID/g and 1.58 %ID/g and 0.42 %ID/g (BALB/c mouse, Staphylococcus aureus myositis, pancreas; 12 h).
For `C=CC(=O)Nc1cccc(Cn2ncc3cnc(Nc4cnn(CCOC)c4)nc32)c1`, “percent of control” read 85% (MARK4 human; binding, KINOMEscan; 100 nM; lower = stronger binding).
With `O=C([O-])CN1CCN(CC(=O)[O-])CCN(CC(=O)NC[C@H]2CC[C@H](C(=O)N[C@H](Cc3cnc4ccccc4c3)C(=O)NCCCC[C@H](NC(=O)N[C@@H](CCC(=O)O)C(=O)O)C(=O)O)CC2)CCN(CC(=O)[O-])CC1.[64Cu+2]` the tissue uptake was 3.72 %ID/g (ex vivo gamma counting; 22Rv1 tumour-bearing mice, heart; intravenous, 0.74 MBq, 1 h post-injection).
For `C=C(NC(=O)c1csc(-c2nc3c(cc2O)-c2nc(cs2)C(=O)NC(C(C)O)C(=O)NC(=C(C)OC)c2nc(cs2)C(=O)NC2c4nc(cs4)C(=O)NC(COC(=O)c4c5c6c(cccc6n4O)COC(=O)C(OC4CC(C)(O)C(N(C)C)C(C)O4)C2OC5)c2nc-3cs2)n1)C(N)=O` (stereo not drawn), the Cmax was 16000 ng/mL (cynomolgus monkey, plasma; intravenous, 3 mg/kg, single dose, infusion).
`CN(Cc1ccccc1)C(=O)CN1CCN(CC(=O)[O-])CCN(Cc2cccc(C(=O)[O-])n2)CC1.[18F-].[Sc+3]` gave a tissue uptake of 0.6 ± 0.11 %ID/g (BALB/c mouse, small intestine; intravenous, 1 h).
For `COC1CN([C@H]2CC[C@H]([C@@]3(C)Oc4c(Cl)cc(C(=O)NCc5c(SC)cc(C)[nH]c5=O)c(C)c4O3)CC2)C1`, “log2 fold change” read 0.189 (RNA-seq, item: TUFT1 mouse homolog; mouse, HT-1376 xenograft, whole blood; dose not given; baseline: vehicle).
With `Cc1cc(C)n(CCN(CCN)CCCCCCNC(=O)[C@@H](N)Cc2c[nH]cn2)n1.[99Tc+].[C-]#[O+].[C-]#[O+].[C-]#[O+]` the tissue uptake was 0.34 ± 0.06 %IA/g (BALB/c nude mice, MCF7 xenograft, heart; intravenous, 4 h).

Repeated from above:
`CN(Cc1ccccc1)C(=O)CN1CCN(CC(=O)[O-])CCN(Cc2cccc(C(=O)[O-])n2)CC1.[18F-].[Sc+3]` gave a tissue uptake of 0.6 ± 0.11 %ID/g (BALB/c mouse, small intestine; intravenous, 1 h).
For `COC1CN([C@H]2CC[C@H]([C@@]3(C)Oc4c(Cl)cc(C(=O)NCc5c(SC)cc(C)[nH]c5=O)c(C)c4O3)CC2)C1`, “log2 fold change” read 0.189 (RNA-seq, item: TUFT1 mouse homolog; mouse, HT-1376 xenograft, whole blood; dose not given; baseline: vehicle).
